# Results collected from several papers.
# Each numbered part is a random draw from the data of one study; scales do not carry over between parts. Substitutions count along the parent as printed.

# Series 1
# Target: RNA binding protein fox-1 homolog 2, RRM domain, GST-SBP tag (RBFOX2, Homo sapiens, UniProt O43251-10, residues 100-194)
# Technique: RNA Bind-n-Seq
# Form: RNA
# Medium: in vitro
# Tested at: 365 nM
# Setting: natural RNA segment, single round, ends assumed
# Baseline: no-protein control
# Reading: higher = stronger binding
# All sequences stand within: GGGAGUUCUACAGUCCGACGAUC … UGGAAUUCUCGGGUGCCAA
# Construct (chain): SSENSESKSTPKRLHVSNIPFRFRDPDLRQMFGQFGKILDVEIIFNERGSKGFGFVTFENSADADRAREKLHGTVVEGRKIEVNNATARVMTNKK
Strand,RBNS enrichment (R)
UUUAGCAGAGCCUUUAGUGUUAACACCAGUGGCGAGGAGCAUUGCAUAUUCUCUGUCAGCAGCAGCACUCCCACACCAGGUGGUUCUGGGCUCUCUGUAGGCUGGUCCUA,0.332
UUUCAUCUCACUCCCAUUGCAAAUCAAGGAGAUCUCAGCAGUGAACUGGGAAAAUACAAAAGCUCUGGGCUAAUCUAUAAAAACUUACCCUGAAAUAUUAAGGGCAGUUU,0.676
CACGCAUCAACACAUCCUCCCCAAAUCUCAAGCAAUAGACAGAAAUCUCAGUAGACUAAACUCCAGCCCAUUUUUUAAAUGUGAGCAUGUGCUUUGCCAUCCAGUGUGGG,2.67
GAGCCCGGCGCCCCUGCCACCUCCCUGACCCGUCUAAUAUAUAAAUAUAGAGAUGUGUCUAUGGCUGCCCUGGCUCUGUCUGUGUUCGCGACGCCCCCGCCCUGCCCCGU,0.492
UUUUUCACAGAACUGGUGUCAGGAAUCACUGAAGGGCUAACCGUGAUAGUCCUUGCAAGUAAGUCAAGGUUUUAUCCUGAUUGGAAAUAGAAGACAUUUCCGGUUGAGAG,0.534
GUAUCUUGUUACUAACUCAGUAUGUGUCAAUGUCAAAUACCAUGAAAUAAAGUCUGAAAACCUUAAAUAGGGACUGUGUUUGUACUUGACAGCCGGGUGGCUUCUUGCUC,0.739
AAUGCCAUCUCAACUGAAAAUACAAAAUUAGCUGGGUGUGGUGGUGCAUGCCUGUAAUCCCAGGUACUCGGGAGGCCAAGGCAGGAGAAUCGCUUGAACCCAGGAGGUGA,1.47
CAUAUUGUGUGAUACUUGAAGAGAUAAAAGGGACUUACCAGCCCUUAAUUGAAAUCUAAGCUUUUUACCGCUUUCCCCUCCUUGCCCUCUCUCCUCCCUUCUGCCCUCCU,0.701
GACAUGAGAUCAGGGCCUGCCCCCUGGGGAUCACAGCCUCACCCCUGCCCCUGUGGGACUCAUCCUUGCCCAGGUGAGGGAAGGAGACAGGAUGAGGUCUCGACCCUGUC,0.403
CCACCUGAAACAUCCCAGCAGGCCCCUUGCUGCCAUGCCUUAUGGUUCCCAAUCAGCCAUUACCAUCUCCACCUGCCGCCAGCCACCAAAUCACCAGCAGGAGGGUCUGC,0.883
AAGCUUUAUUUGAAGCAAAGCUAGCCAAGAUUCUACGUUACUUUUCCCUUGACUGGAUCCCAAGUAGCUUGGAAGUUUUUGUGCCCAGGAGAGUAAAUAACUGUGAACAA,0.403
CCACUUCUCGUUGCUGCUCUGUGGCACAUAUCGGAAGCAGUACAGCGCGCGGCUCUACACGCUUGGGUAGCGGGAUAAGUCACUGUUUUCUUUAUUUCUUUAAAAAAAAA,0.302

# Series 2
# Target: CCNA2, cyclin fold, Cln2 fusion (human)
# Technique: yeast growth competition, sequencing
# Medium: yeast
# Setting: strong parent motif
# Baseline: not given
# Reading: higher = stronger binding
# Parent: CDKN1B docking peptide (human); PSACRNLFGPVDH; partner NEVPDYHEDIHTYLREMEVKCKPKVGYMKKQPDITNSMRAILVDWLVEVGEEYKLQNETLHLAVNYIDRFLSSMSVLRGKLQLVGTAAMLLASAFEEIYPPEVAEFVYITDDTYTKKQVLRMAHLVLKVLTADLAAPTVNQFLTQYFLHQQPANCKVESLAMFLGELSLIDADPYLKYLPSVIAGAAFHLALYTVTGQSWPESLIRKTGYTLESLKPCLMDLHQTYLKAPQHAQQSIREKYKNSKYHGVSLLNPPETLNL
Variant,normalised enrichment score
PSACRNLFGPKDH [V11K],2.58
PSACRNLFGPVDV [H13V],3.76
PSACRNLFGMVDH [P10M],3.12
PSACRNLFGPCDH [V11C],3.38
PSACRNLFGDVDH [P10D],3.59
PSACRNLFSPVDH [G9S],1.9
PCACRNLFGPVDH [S2C],2.43
MSACRNLFGPVDH [P1M],3.29
KSACRNLFGPVDH [P1K],5.12
PSACRNLFMPVDH [G9M],1.68
PDACRNLFGPVDH [S2D],2.03
PSACRNLFTPVDH [G9T],1.56
PSACRNLFGPDDH [V11D],4.55
PYACRNLFGPVDH [S2Y],2.11
PSFCRNLFGPVDH [A3F],4.11
PSACRNLFGPVDR [H13R],4.28
PSACNNLFGPVDH [R5N],0.311
PSACRVLFGPVDH [N6V],3.12

# Series 3
# Target: Histone acetyltransferase KAT6A, winged helix 2, GST fusion (KAT6A, Homo sapiens, UniProt Q92794, residues 85-181)
# Technique: protein binding microarray
# Form: double-stranded DNA, one strand shown
# Medium: in vitro
# Tested at: not given
# Setting: 8-mer, flanks averaged, mean of 2 arrays, mostly near background
# Baseline: not given
# Reading: higher = stronger binding
# Construct (chain): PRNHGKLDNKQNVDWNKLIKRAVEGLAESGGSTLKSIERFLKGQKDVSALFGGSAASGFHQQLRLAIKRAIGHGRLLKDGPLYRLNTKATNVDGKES
Strand,E-score
AAACAATA,0.0728
CCCATTAG,-0.267
AAAAGTGG,0.0924
CTCGCTCA,0.271
ATTCCTTA,-0.176
CAGGGCAA,-0.00732
AAATTATA,-0.029
CTTCTACC,-0.0153
AGCTGTTA,-0.143
ACTTGGAT,-0.128
ACATCACA,-0.161
CGCTCGCA,0.251
AAGCTTTG,-0.114
ATGGATGG,-0.113
CTGAGAAC,-0.00668
CTCAGTAC,-0.0356
GCTGTCGA,-0.0259
AGATAGGA,-0.039
CGCCTCCA,0.0799
GCACGATA,0.0207
CAGCCAGA,0.0845
TACAGAAA,0.0562
CGTGCGCA,0.103
GAGGCGCC,0.132
CCGGGAGC,0.11

# Series 4
# Target: NFIL3, bZIP domain (human)
# Technique: DHFR protein complementation
# Medium: yeast
# Setting: single substitutions, most at no-binding floor
# Baseline: wild-type JUN-FOS pair
# Reading: higher = stronger binding
# Parent: JUN, bZIP domain (human); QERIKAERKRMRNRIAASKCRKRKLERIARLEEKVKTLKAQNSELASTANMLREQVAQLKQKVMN; partner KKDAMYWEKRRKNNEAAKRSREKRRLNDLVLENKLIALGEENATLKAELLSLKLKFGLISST
Variant,binding fitness [natural log]
S47F,-1.41
L45E,-1.59
A49E,-1.32
R30V,-1.44
E44D,-1.59
A49T,-1.51
E54G,-1.42
T37M,-0.973
A46Q,-1.49
R30W,-1.41
Q55L,-1.54
E33F,-1.62
L52I,-1.37
K34T,-1.48
I28L,-1.3
I28G,-1.38
R53Q,-1.53
E44T,-1.42
L45T,-1.45
E44G,-1.47
E44V,-1.43
E54A,-1.53
R30E,-1.3
A49Y,-1.31
K36G,-1.44

# Series 5
# Target: Interferon regulatory factor 5, full length, phosphomimetic (IRF5, Homo sapiens, UniProt Q13568-2, residues 1-514, S451D/S453D/S456D/S462D)
# Technique: protein-binding microarray
# Form: double-stranded DNA, one strand shown
# Medium: in vitro
# Tested at: 940 nM top
# Setting: 60-bp whole probe
# Added: salmon DNA 0.4 mg/ml
# Baseline: random background probes
# Reading: higher = stronger binding
# All sequences stand within: GCCTAGCAC … GTCTTGATTCGCTTGACGCTGCTG
Strand,fitted relative affinity
TTAGGTTTCGGGCATCGGTTAGTGCTA,8.93 z-score
GACGGTCTCCGTTTCCTGACGTGCTAG,0.509 z-score
TTAGGTATCAGTTTCGATTAGTGCTAG,9.13 z-score
GACGGACTGGGACTCGGGACGTGCTAG,-0.216 z-score
TTAGATTTGGGGTATCGATTAGTGCTA,3.16 z-score
GACGGTTTCGGTTCCGCGACGTGCTAG,14.3 z-score
TTAGATTTCGGAACTGGATTAGTGCTA,0.496 z-score
TTTTTTTCCTAATTGAACCCGTGCTAG,1.14 z-score
GACGGTATCGGTTTCTGGACGTGCTAG,7.84 z-score
ATTGCTTCCTCTTTCTCTGCGTGCTAG,1.29 z-score
TTAGCTTTCGGGACTGGATTAGTGCTA,2.15 z-score
GTAGGTTCCCTTTTCCTTTAGTGCTAG,0.758 z-score
ATATCTAAAAAGTCTCTGGGAGTGCTA,0.614 z-score
TCATGTTTGGGTCTTGTACTGTGCTAG,0.369 z-score
TCATTTTTCTGCTTAGAACTGTGCTAG,0.57 z-score
TTAGGACTGGACACTTGGTTAGTGCTA,-0.659 z-score
GACGATCTCTGTCTCGAGACGTGCTAG,0.728 z-score
GACGATTTCGGGTTTCGAGATGTGCTA,2.14 z-score
TCAGGTTTTACTTTCTAACTGTGCTAG,1.34 z-score
AGTCGTGAGCCGCACAGTGGGTGCTAG,-0.523 z-score
ATGGCAAAAAAAAAAGATTTGTGCTAG,-0.271 z-score
GACTATTTCGGGACTGGAGACGTGCTA,0.135 z-score
GACGGTTTCCTTATCCTGTCGTGCTAG,2.96 z-score
TTAGAACTGGGGTATCCATTAGTGCTA,0.126 z-score
GACGGTTTCGGTTTCCGGACGTGCTAG,15.4 z-score

# Series 6
# Target: ABI1, truncated, D143A, DHFR fusion (Arabidopsis thaliana)
# Technique: DHFR PCA, deep sequencing
# Medium: yeast
# Setting: methotrexate growth selection, single substitutions
# Added: (+)-ABA 0.11 µM
# Baseline: wild-type fitted maximum
# Reading: higher = stronger binding
# Parent: PYL1, truncated, DHFR fusion (Arabidopsis thaliana); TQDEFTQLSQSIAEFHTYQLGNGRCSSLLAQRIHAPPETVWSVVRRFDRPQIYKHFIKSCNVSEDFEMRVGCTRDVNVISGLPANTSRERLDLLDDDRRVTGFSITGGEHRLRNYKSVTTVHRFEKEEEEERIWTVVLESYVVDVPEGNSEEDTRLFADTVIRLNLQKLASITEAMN; partner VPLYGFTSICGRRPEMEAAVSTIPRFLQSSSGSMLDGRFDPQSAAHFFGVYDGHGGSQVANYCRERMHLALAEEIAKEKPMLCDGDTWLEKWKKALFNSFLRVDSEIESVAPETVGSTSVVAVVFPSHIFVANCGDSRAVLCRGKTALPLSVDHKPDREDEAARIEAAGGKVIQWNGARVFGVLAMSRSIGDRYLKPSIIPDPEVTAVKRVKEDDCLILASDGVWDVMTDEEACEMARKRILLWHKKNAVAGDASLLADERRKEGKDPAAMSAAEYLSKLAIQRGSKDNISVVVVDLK
Variant,relative binding score
G71L,-0.714%
E174W,0.669%
D3E,50.5%
T1S,32.4%
I79E,14.2%
T154Q,0.373%
T73H,28.7%
S80A,15.1%
G71C,-7.6%
S171R,47.1%
V100A,28.6%
N149I,38.4%
I172Y,9.18%
S11N,7.19%

# Repeated from above (series 4):
Variant,binding fitness [natural log]
R30V,-1.44
E44D,-1.59
A49T,-1.51
E54G,-1.42
T37M,-0.973
A46Q,-1.49
R30W,-1.41
Q55L,-1.54
E33F,-1.62
